{"data": "Published values from different studies", "note": "A part holds a random share of what one study measured.", "UniProt Q16816, sequence (whole entry, looked up)": "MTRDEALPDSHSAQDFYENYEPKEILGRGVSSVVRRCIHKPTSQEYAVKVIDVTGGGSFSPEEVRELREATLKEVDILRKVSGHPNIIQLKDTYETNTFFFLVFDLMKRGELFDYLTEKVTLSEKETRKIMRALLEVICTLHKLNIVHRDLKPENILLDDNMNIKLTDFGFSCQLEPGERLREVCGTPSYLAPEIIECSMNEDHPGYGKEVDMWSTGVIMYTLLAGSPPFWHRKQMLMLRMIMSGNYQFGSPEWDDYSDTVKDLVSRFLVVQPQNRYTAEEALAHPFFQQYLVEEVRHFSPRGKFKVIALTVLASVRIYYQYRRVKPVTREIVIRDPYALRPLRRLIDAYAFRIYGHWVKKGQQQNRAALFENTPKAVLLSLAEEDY", "UniProt P54764, sequence (whole entry, looked up)": "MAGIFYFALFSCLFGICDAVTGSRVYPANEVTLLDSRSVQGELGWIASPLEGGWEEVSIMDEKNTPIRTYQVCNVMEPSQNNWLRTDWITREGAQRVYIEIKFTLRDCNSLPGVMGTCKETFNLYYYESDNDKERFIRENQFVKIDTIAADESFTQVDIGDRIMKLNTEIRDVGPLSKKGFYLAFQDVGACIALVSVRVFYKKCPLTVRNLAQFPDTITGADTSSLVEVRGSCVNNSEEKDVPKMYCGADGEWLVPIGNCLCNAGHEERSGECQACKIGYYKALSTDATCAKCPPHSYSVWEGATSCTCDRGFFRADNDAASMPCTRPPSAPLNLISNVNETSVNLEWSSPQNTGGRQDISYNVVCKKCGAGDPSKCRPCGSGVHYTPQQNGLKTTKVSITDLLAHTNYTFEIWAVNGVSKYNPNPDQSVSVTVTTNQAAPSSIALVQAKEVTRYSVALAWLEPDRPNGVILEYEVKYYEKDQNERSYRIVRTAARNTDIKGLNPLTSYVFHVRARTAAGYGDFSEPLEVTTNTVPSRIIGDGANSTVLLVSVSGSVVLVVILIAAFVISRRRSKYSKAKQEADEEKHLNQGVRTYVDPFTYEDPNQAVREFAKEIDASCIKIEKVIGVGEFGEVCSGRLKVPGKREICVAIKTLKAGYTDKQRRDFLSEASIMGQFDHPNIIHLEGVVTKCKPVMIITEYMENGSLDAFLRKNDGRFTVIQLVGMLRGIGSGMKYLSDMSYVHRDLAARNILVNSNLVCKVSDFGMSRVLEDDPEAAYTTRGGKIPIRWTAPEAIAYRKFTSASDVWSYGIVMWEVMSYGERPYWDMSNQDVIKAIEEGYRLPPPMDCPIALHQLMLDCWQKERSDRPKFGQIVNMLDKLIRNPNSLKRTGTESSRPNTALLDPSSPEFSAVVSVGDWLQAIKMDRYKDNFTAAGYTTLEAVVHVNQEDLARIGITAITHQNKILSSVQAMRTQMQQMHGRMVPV", "UniProt Q96PF2, sequence (whole entry, looked up)": "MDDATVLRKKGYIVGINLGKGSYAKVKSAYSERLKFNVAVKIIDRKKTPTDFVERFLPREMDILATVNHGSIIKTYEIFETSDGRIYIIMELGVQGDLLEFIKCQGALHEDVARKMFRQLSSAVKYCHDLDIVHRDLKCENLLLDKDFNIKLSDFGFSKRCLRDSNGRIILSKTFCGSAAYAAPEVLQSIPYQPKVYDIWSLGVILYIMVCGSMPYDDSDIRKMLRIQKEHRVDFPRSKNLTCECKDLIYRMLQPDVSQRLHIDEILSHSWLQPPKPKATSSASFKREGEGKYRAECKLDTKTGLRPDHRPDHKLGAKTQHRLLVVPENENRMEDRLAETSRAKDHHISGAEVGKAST", "UniProt Q9P1P5, sequence (whole entry, looked up)": "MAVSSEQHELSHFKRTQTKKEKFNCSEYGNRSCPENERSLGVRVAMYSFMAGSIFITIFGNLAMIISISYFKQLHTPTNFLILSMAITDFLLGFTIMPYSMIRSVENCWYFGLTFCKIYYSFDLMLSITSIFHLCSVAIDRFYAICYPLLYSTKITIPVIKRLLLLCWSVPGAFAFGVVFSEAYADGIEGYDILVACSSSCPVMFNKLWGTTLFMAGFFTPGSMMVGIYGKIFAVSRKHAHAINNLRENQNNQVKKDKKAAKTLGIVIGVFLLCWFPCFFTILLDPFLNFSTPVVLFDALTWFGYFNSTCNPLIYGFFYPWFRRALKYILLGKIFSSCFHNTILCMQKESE", "UniProt O75716, sequence (whole entry, looked up)": "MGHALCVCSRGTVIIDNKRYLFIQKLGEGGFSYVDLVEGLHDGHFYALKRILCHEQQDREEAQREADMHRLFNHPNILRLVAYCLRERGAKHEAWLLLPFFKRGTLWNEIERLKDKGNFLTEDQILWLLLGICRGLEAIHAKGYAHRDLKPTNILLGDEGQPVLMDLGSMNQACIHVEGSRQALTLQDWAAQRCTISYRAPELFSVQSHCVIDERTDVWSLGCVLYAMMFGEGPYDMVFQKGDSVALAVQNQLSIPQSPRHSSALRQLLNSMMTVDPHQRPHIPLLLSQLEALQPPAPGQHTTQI", "UniProt P08588, sequence (whole entry, looked up)": "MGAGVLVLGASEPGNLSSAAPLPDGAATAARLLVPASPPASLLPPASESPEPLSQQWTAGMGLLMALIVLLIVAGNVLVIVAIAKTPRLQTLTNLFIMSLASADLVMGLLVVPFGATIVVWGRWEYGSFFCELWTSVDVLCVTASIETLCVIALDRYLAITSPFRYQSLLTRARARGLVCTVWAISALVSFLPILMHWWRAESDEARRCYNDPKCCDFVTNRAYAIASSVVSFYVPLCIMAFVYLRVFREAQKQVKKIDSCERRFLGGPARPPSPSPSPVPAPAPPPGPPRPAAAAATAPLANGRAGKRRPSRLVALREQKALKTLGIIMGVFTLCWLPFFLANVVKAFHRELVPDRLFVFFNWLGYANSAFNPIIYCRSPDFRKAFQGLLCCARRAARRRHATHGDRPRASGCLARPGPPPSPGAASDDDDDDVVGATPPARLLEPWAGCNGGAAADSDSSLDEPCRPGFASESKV", "UniProt Q9BYP7, sequence (whole entry, looked up)": "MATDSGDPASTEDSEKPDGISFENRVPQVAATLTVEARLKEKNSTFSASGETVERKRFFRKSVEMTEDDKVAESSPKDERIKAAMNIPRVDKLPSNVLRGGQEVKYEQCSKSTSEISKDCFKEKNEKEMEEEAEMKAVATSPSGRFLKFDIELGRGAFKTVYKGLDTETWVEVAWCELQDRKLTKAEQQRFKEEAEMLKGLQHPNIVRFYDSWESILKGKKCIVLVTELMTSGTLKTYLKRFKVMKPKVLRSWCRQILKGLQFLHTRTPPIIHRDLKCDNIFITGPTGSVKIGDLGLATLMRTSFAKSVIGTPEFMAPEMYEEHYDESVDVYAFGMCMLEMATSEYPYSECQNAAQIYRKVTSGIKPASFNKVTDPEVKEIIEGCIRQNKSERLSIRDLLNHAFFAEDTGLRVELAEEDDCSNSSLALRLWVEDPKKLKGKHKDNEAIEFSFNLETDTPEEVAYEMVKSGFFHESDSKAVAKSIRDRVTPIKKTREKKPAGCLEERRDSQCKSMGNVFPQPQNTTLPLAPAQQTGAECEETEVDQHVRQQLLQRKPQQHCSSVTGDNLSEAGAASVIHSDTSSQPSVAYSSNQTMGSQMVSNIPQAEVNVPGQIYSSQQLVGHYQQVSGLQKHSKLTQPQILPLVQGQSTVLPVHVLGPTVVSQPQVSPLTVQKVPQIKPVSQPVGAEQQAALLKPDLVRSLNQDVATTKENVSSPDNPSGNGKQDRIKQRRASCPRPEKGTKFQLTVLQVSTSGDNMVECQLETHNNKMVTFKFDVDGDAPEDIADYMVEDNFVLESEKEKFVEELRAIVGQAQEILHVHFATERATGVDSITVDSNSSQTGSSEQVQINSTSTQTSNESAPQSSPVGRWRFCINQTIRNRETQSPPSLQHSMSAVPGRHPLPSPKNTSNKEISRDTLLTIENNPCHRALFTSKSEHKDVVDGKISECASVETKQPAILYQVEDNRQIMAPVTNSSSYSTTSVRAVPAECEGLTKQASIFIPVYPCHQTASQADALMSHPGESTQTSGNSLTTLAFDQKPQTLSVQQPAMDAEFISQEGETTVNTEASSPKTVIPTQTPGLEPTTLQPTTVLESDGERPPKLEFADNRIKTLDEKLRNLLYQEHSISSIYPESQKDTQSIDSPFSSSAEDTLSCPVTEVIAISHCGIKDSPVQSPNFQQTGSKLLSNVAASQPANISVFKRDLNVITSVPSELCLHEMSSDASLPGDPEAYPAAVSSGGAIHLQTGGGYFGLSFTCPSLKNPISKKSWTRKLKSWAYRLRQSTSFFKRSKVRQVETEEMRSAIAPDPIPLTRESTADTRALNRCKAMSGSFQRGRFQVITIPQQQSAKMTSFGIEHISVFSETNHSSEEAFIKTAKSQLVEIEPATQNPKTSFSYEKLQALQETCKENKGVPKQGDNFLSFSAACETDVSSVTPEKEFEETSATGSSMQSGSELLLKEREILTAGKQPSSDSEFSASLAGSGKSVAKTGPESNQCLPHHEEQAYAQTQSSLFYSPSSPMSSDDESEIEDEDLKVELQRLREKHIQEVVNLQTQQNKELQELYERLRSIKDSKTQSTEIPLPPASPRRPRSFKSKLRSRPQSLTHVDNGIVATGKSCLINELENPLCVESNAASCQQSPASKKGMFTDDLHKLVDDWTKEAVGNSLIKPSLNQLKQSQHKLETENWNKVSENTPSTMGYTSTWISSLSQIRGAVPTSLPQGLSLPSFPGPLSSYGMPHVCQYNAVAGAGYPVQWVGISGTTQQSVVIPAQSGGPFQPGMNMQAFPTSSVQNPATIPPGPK", "UniProt Q00534, sequence (whole entry, looked up)": "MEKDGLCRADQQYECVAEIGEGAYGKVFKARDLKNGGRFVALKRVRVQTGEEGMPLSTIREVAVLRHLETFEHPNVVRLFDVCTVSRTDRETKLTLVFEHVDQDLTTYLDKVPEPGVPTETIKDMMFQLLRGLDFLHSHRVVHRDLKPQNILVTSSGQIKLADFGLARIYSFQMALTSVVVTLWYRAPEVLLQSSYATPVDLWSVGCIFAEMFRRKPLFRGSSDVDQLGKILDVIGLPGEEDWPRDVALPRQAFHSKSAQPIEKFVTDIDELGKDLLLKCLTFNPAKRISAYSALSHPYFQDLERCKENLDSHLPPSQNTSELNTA"}
{"data": "Study 1", "technique": "PRP-column chromatography"}
{"Structure (SMILES)": "COCC(=O)OCCCCCC(=O)N[C@H](C(=O)N1C[C@H](O)C[C@H]1C(=O)NCc1ccc(-c2scnc2C)cc1)C(C)(C)C", "average log k' (20-100)": 0.988}
{"Structure (SMILES)": "CCCC(=O)NCCCCCC(=O)N[C@H](C(=O)N1C[C@H](O)C[C@H]1C(=O)NCc1ccc(-c2scnc2C)cc1)C(C)(C)C", "average log k' (20-100)": 0.944}
{"Structure (SMILES)": "Cc1ncsc1-c1ccc(CNC(=O)[C@@H]2C[C@@H](O)CN2C(=O)[C@@H](NC(=O)CCCCCNC(=O)C2CCCCC2)C(C)(C)C)cc1", "average log k' (20-100)": 1.05}
{"Structure (SMILES)": "COCC(=O)NCCCCCC(=O)N[C@H](C(=O)N1C[C@H](O)C[C@H]1C(=O)NCc1ccc(-c2scnc2C)cc1)C(C)(C)C", "average log k' (20-100)": 0.881}
{"Structure (SMILES)": "CCCCOc1ccc(-c2ccc(C(=O)OCCCCCC(=O)N[C@H](C(=O)N3C[C@H](O)C[C@H]3C(=O)NCc3ccc(-c4scnc4C)cc3)C(C)(C)C)cc2)cc1", "average log k' (20-100)": 1.4}
{"Structure (SMILES)": "CCCCOc1ccc(-c2ccc(C(=O)NCCCCCC(=O)N[C@H](C(=O)N3C[C@H](O)C[C@H]3C(=O)NCc3ccc(-c4scnc4C)cc3)C(C)(C)C)cc2)cc1", "average log k' (20-100)": 1.29}
{"data": "Study 2", "Structure (SMILES)": "O=C1c2ccccc2-c2nc3nnnn3nc21", "read-out": "enzyme activity", "mode": "inhibitor", "tested at": "0.5 µM", "reference": "control"}
{"target": "Cyclin-dependent kinase 1, with cyclin B (CDK1, Homo sapiens, UniProt P06493)", "remaining activity [%]": 48}
{"target": "Phosphorylase b kinase gamma catalytic chain, skeletal muscle/heart isoform (PHKG1, Homo sapiens, UniProt Q16816)", "remaining activity [%]": 92.5}
{"target": "Cyclin-dependent kinase 6, with cyclin D3 (CDK6, Homo sapiens, UniProt Q00534)", "remaining activity [%]": 9.93}
{"target": "Ribosomal protein S6 kinase alpha-6 (RPS6KA6, Homo sapiens, UniProt Q9UK32)", "remaining activity [%]": 62.3}
{"target": "Homeodomain-interacting protein kinase 2 (HIPK2, Homo sapiens, UniProt Q9H2X6)", "remaining activity [%]": 107}
{"target": "Serine/threonine-protein kinase 17A (STK17A, Homo sapiens, UniProt Q9UEE5)", "remaining activity [%]": 83.8}
{"target": "3-phosphoinositide-dependent protein kinase 1 (PDPK1, Homo sapiens, UniProt O15530)", "remaining activity [%]": 79}
{"target": "Ephrin type-A receptor 4 (EPHA4, Homo sapiens, UniProt P54764)", "remaining activity [%]": 61.1}
{"target": "Calcium/calmodulin-dependent protein kinase type II subunit beta (CAMK2B, Homo sapiens, UniProt Q13554)", "remaining activity [%]": 85.2}
{"target": "Homeodomain-interacting protein kinase 4 (HIPK4, Homo sapiens, UniProt Q8NE63)", "remaining activity [%]": 97.9}
{"target": "Testis-specific serine/threonine-protein kinase 2 (TSSK2, Homo sapiens, UniProt Q96PF2)", "remaining activity [%]": 75}
{"target": "Cyclin-dependent kinase 4, with cyclin D3 (CDK4, Homo sapiens, UniProt P11802)", "remaining activity [%]": 68.1}
{"target": "Serine/threonine-protein kinase WNK3 (WNK3, Homo sapiens, UniProt Q9BYP7)", "remaining activity [%]": 116}
{"target": "Tyrosine-protein kinase Srms (SRMS, Homo sapiens, UniProt Q9H3Y6)", "remaining activity [%]": 6.33}
{"target": "Ribosomal protein S6 kinase alpha-5 (RPS6KA5, Homo sapiens, UniProt O75582)", "remaining activity [%]": 68.7}
{"target": "Mitogen-activated protein kinase kinase kinase kinase 4 (MAP4K4, Homo sapiens, UniProt O95819)", "remaining activity [%]": 89}
{"target": "Tyrosine-protein kinase Blk (BLK, Homo sapiens, UniProt P51451)", "remaining activity [%]": 109}
{"target": "Tyrosine-protein kinase receptor UFO (AXL, Homo sapiens, UniProt P30530)", "remaining activity [%]": 10.3}
{"target": "cAMP-dependent protein kinase catalytic subunit gamma (PRKACG, Homo sapiens, UniProt P22612)", "remaining activity [%]": 88.5}
{"target": "Ephrin type-B receptor 4 (EPHB4, Homo sapiens, UniProt P54760)", "remaining activity [%]": 97.1}
{"target": "Ephrin type-B receptor 1 (EPHB1, Homo sapiens, UniProt P54762)", "remaining activity [%]": 89.5}
{"target": "Serine/threonine-protein kinase 16 (STK16, Homo sapiens, UniProt O75716)", "remaining activity [%]": 80.5}
{"target": "Dual specificity tyrosine-phosphorylation-regulated kinase 3 (DYRK3, Homo sapiens, UniProt O43781)", "remaining activity [%]": 88.6}
{"target": "MAP kinase-activated protein kinase 3 (MAPKAPK3, Homo sapiens, UniProt Q16644)", "remaining activity [%]": 76}
{"data": "Study 3", "Compound": "CCCCN(CCCC)C(=O)CN1C[C@@H](c2cc(OC)c3c(c2)OCO3)[C@H](C(=O)O)[C@H]1CC(C)(C)CCC", "read-out": "cell-free assay", "technique": "competition with immobilised ligand", "tested at": "1 µM"}
{"target": "Serine/threonine-protein kinase 32A (STK32A, Homo sapiens, UniProt Q8WU08)", "remaining binding [%]": 100}
{"target": "Calcium/calmodulin-dependent protein kinase kinase 2 (CAMKK2, Homo sapiens, UniProt Q96RR4)", "remaining binding [%]": 87.2}
{"target": "RAC-alpha serine/threonine-protein kinase (AKT1, Homo sapiens, UniProt P31749)", "remaining binding [%]": 85.7}
{"target": "Serine/threonine-protein kinase 25 (STK25, Homo sapiens, UniProt O00506)", "remaining binding [%]": 88.1}
{"target": "Vascular endothelial growth factor receptor 3 (FLT4, Homo sapiens, UniProt P35916)", "remaining binding [%]": 100}
{"target": "Fibroblast growth factor receptor 2 (FGFR2, Homo sapiens, UniProt P21802)", "remaining binding [%]": 83.2}
{"target": "Phosphatidylinositol 4,5-bisphosphate 3-kinase catalytic subunit alpha isoform (PIK3CA, Homo sapiens, UniProt P42336, E542K)", "remaining binding [%]": 100}
{"target": "Ribosomal protein S6 kinase alpha-1, N-terminal kinase domain (RPS6KA1, Homo sapiens, UniProt Q15418)", "remaining binding [%]": 91.3}
{"target": "Mitogen-activated protein kinase kinase kinase 7 (MAP3K7, Homo sapiens, UniProt O43318)", "remaining binding [%]": 84.7}
{"target": "Serine/threonine-protein kinase Nek1 (NEK1, Homo sapiens, UniProt Q96PY6)", "remaining binding [%]": 100}
{"target": "Ribosomal protein S6 kinase alpha-4, C-terminal kinase domain (RPS6KA4, Homo sapiens, UniProt O75676)", "remaining binding [%]": 97.2}
{"target": "Tyrosine-protein kinase Yes (YES1, Homo sapiens, UniProt P07947)", "remaining binding [%]": 95.3}
{"target": "Calcium/calmodulin-dependent protein kinase kinase 1 (CAMKK1, Homo sapiens, UniProt Q8N5S9)", "remaining binding [%]": 100}
{"target": "Protein kinase C eta type (PRKCH, Homo sapiens, UniProt P24723)", "remaining binding [%]": 0}
{"target": "Activin receptor type-1 (ACVR1, Homo sapiens, UniProt Q04771)", "remaining binding [%]": 100}
{"target": "Protein kinase C delta type (PRKCD, Homo sapiens, UniProt Q05655)", "remaining binding [%]": 98.2}
{"target": "Tyrosine-protein kinase Fes/Fps (FES, Homo sapiens, UniProt P07332)", "remaining binding [%]": 100}
{"data": "Study 4", "SMILES": "CC(C)CN(C)c1nc(N)c(C(=O)N=C(N)N)nc1Cl", "read-out": "β-arrestin recruitment", "mode": "agonist", "technique": "PRESTO-Tango", "tested at": "10 µM", "reference": "untreated"}
{"target": "Probable G-protein coupled receptor 141 (GPR141, Homo sapiens, UniProt Q7Z602)", "fold over basal": 0.92}
{"target": "Alpha-1B adrenergic receptor (ADRA1B, Homo sapiens, UniProt P35368)", "fold over basal": 1.03}
{"target": "Prolactin-releasing peptide receptor (PRLHR, Homo sapiens, UniProt P49683)", "fold over basal": 0.99}
{"target": "Atypical chemokine receptor 3 (ACKR3, Homo sapiens, UniProt P25106)", "fold over basal": 7.83}
{"target": "Adenosine receptor A1 (ADORA1, Homo sapiens, UniProt P30542)", "fold over basal": 0.94}
{"target": "Endothelin receptor type B (EDNRB, Homo sapiens, UniProt P24530)", "fold over basal": 0.89}
{"target": "Trace amine-associated receptor 2 (TAAR2, Homo sapiens, UniProt Q9P1P5)", "fold over basal": "0.63 fold"}
{"target": "Beta-1 adrenergic receptor (ADRB1, Homo sapiens, UniProt P08588)", "fold over basal": 0.96}
{"target": "Probable G-protein coupled receptor 150 (GPR150, Homo sapiens, UniProt Q8NGU9)", "fold over basal": 1.85}
{"target": "G-protein coupled receptor 55 (GPR55, Homo sapiens, UniProt Q9Y2T6)", "fold over basal": 1.67}
{"note": "Repeated from above (study 3):"}
{"target": "Protein kinase C eta type (PRKCH, Homo sapiens, UniProt P24723)", "remaining binding [%]": 0}
{"target": "Mitogen-activated protein kinase kinase kinase 7 (MAP3K7, Homo sapiens, UniProt O43318)", "remaining binding [%]": 84.7}
{"target": "Tyrosine-protein kinase Yes (YES1, Homo sapiens, UniProt P07947)", "remaining binding [%]": 95.3}
{"target": "Ribosomal protein S6 kinase alpha-4, C-terminal kinase domain (RPS6KA4, Homo sapiens, UniProt O75676)", "remaining binding [%]": 97.2}
{"target": "Phosphatidylinositol 4,5-bisphosphate 3-kinase catalytic subunit alpha isoform (PIK3CA, Homo sapiens, UniProt P42336, E542K)", "remaining binding [%]": 100}
{"target": "Calcium/calmodulin-dependent protein kinase kinase 2 (CAMKK2, Homo sapiens, UniProt Q96RR4)", "remaining binding [%]": 87.2}
{"target": "Tyrosine-protein kinase Fes/Fps (FES, Homo sapiens, UniProt P07332)", "remaining binding [%]": 100}
